Assay results collected from several papers.
A part holds a random share of what one study measured.
UniProt P21917, sequence (whole entry, looked up): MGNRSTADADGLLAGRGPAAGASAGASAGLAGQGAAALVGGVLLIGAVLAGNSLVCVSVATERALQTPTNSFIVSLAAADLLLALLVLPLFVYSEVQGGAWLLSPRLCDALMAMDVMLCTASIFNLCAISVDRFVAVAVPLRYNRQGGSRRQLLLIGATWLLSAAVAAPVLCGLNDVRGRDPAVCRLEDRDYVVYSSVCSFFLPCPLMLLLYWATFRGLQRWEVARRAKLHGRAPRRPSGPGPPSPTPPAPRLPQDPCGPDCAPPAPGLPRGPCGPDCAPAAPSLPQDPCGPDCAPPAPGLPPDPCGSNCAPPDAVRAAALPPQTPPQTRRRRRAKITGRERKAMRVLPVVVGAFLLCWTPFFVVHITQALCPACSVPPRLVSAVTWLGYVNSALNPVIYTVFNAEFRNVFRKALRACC
UniProt Q16816, sequence (whole entry, looked up): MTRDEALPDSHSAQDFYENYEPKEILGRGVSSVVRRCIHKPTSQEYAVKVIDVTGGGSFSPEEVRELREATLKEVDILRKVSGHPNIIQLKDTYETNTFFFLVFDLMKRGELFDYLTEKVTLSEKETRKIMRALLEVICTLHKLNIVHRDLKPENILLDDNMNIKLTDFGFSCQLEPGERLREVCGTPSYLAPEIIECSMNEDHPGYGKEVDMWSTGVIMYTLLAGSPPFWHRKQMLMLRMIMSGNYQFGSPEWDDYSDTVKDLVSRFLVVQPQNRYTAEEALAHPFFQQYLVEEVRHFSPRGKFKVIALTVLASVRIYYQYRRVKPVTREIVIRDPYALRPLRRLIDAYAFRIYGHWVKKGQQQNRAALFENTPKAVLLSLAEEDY
UniProt Q9UEE5, sequence (whole entry, looked up): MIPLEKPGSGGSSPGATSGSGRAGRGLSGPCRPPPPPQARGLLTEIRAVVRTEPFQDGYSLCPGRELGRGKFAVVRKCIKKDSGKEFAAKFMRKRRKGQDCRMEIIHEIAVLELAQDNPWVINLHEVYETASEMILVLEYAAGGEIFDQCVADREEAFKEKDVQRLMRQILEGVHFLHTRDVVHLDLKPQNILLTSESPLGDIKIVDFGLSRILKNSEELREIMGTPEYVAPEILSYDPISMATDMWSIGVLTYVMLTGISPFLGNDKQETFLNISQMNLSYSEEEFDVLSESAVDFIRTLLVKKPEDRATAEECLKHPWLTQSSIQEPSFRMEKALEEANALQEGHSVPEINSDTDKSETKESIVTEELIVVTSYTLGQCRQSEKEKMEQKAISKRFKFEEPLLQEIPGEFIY
UniProt P0C264, sequence (whole entry, looked up): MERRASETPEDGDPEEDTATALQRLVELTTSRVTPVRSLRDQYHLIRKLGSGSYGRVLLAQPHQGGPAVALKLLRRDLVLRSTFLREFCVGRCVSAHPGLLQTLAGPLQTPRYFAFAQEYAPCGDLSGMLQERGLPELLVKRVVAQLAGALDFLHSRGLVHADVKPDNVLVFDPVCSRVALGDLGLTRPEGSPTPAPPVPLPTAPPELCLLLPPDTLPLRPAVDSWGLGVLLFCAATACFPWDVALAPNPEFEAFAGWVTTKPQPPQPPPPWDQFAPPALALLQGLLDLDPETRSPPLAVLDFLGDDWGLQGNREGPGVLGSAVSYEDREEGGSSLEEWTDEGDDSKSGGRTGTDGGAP
UniProt P46091, sequence (whole entry, looked up): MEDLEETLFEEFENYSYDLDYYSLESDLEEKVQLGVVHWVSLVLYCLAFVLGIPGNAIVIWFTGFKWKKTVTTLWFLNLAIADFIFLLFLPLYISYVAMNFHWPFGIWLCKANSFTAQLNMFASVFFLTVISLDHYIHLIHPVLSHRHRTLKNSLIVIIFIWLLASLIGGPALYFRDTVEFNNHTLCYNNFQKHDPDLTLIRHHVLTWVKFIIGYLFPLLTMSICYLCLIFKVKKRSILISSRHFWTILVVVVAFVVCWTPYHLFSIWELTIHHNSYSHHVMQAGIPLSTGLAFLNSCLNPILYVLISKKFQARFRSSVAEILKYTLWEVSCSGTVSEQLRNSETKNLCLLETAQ
UniProt O75716, sequence (whole entry, looked up): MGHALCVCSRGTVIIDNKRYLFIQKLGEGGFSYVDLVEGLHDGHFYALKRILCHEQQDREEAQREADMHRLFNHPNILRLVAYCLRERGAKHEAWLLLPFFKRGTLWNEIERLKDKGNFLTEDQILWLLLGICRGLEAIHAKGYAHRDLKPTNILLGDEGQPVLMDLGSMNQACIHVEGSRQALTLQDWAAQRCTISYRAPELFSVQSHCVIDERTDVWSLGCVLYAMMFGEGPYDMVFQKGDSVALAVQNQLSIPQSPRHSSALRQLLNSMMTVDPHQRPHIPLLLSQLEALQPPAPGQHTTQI
UniProt Q9UM73, sequence (whole entry, unmodified, looked up): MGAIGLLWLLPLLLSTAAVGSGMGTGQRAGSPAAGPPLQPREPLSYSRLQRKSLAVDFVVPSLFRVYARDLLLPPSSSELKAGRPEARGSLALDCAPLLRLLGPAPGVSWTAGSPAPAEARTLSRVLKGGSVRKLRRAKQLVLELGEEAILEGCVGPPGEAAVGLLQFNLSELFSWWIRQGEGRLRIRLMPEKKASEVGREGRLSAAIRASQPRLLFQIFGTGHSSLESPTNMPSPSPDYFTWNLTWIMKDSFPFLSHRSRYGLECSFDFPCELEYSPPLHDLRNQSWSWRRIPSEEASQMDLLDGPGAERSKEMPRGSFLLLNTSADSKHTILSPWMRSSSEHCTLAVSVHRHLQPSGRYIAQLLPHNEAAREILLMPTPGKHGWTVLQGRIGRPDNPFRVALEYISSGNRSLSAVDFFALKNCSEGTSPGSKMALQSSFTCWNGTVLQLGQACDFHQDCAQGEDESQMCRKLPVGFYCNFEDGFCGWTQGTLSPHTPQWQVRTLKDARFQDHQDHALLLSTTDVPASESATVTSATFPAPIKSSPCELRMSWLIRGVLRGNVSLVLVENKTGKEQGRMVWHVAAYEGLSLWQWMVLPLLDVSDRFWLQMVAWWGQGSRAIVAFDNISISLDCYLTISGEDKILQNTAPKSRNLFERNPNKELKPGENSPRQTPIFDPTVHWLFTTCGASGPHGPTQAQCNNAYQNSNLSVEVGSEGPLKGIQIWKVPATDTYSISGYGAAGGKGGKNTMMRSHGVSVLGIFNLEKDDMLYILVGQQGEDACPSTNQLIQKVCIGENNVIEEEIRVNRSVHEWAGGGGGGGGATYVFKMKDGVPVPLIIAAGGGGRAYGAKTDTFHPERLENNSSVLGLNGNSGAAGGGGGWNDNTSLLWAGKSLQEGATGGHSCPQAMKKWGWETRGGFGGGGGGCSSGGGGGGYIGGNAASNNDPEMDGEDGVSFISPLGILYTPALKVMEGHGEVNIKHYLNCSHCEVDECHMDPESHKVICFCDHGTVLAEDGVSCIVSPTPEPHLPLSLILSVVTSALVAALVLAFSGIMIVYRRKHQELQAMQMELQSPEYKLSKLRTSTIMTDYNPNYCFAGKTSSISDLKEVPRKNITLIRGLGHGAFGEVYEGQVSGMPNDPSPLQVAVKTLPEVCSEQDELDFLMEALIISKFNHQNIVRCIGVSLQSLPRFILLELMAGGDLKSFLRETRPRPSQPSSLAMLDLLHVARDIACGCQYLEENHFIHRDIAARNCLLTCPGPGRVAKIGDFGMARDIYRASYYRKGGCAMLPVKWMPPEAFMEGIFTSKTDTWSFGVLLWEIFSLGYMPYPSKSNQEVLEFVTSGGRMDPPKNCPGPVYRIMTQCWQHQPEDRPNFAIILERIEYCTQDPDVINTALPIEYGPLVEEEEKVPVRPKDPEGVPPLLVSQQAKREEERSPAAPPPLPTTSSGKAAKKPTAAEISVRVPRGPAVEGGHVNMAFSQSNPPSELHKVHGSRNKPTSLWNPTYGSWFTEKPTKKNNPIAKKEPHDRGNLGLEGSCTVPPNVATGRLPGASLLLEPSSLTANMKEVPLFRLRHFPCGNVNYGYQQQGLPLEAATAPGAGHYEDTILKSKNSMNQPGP
UniProt P37288, sequence (whole entry, looked up): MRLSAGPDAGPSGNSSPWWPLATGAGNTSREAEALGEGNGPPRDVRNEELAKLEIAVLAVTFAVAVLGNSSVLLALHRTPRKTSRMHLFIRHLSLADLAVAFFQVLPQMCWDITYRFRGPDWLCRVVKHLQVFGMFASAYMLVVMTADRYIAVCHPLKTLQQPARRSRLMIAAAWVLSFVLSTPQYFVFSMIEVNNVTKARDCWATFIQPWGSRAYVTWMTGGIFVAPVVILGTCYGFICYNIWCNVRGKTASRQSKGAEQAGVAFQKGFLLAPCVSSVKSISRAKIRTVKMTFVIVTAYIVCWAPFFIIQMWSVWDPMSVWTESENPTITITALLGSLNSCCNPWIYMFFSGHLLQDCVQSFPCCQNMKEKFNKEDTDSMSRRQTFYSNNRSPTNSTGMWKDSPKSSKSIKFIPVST
UniProt Q13554, sequence (whole entry, looked up): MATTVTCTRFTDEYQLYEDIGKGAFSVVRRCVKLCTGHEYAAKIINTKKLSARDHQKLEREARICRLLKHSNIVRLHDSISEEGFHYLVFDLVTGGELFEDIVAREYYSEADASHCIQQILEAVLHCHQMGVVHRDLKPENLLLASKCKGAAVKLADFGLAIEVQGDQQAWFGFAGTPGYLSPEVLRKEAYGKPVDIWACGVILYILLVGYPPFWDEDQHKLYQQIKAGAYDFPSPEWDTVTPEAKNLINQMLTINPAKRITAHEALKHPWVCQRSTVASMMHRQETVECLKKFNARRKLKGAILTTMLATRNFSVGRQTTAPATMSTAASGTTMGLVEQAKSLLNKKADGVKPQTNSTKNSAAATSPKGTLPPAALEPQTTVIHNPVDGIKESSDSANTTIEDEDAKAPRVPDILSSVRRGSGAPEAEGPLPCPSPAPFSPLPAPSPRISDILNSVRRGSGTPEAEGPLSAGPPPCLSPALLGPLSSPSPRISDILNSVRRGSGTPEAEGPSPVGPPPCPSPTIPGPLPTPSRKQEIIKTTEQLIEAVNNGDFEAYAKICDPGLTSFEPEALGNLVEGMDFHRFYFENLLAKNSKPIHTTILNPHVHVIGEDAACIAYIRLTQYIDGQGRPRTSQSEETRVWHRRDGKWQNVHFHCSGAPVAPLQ

Block 1
Host: human
Matrix: microsomes or S9
Tested at: 2 µM
Time: 0.5 h
Measurement: remaining compound
Clc1ccc2nc(N3CCc4ccccc4C3)sc2c1: 43.5%
Cc1nn(C)c(-c2nc(-c3ccc(Br)o3)no2)c1Cl: 6.72%
O=C1Nc2ccccc2C12Oc1ccccc1C1CC(c3cccnc3)=NN12 (stereo not shown): 65.5%
CCCOCC1CC(n2cncn2)C(c2ccc(Cl)cc2)=NO1 (stereo not shown): 45.2%
CCC(CC)C(=O)N1CCN(c2cc(-n3nc(C)cc3C)ncn2)CC1: 87.6%
C=CC(C)(O)CC[C@]1(C)[C@H]2CC(=O)C=C(C)[C@]2(C)C[C@@H](O)[C@@H]1C (stereo partly shown): > 99.9%
NC(CC(=O)N1CCCCN1)Cc1ccccc1F (stereo not shown): 91%
CCN(CC)CCNc1nc(C)cc(COC)c1C(N)=O: 35.6%

Block 2
SMILES: CC(C)CN(C)c1nc(N)c(C(=O)N=C(N)N)nc1Cl
Observed: β-arrestin recruitment
Mode: agonist
Method: PRESTO-Tango
Tested at: 10 µM
Reference: untreated
Measurement: fold over basal
GALR2 (Homo sapiens, UniProt O43603): 0.42 fold
DRD4 (Homo sapiens, UniProt P21917): 1.2
HTR6 (Homo sapiens, UniProt P50406): 0.63
NMBR (Homo sapiens, UniProt P28336): 0.88
CMKLR2 (Homo sapiens, UniProt P46091): 0.79
AVPR1A (Homo sapiens, UniProt P37288): 1.39
Metabotropic glutamate receptor 6 (Homo sapiens, UniProt O15303): 0.79 fold
S1PR2 (Homo sapiens, UniProt O95136): 0.74
NPY5R (Homo sapiens, UniProt Q15761): 0.68

Block 3
Compound: Cc1c[nH]c2nccc(Oc3c(F)cc(Nc4cc(Cl)nc(N)n4)cc3F)c12
Observed: cell-free assay
Method: competition with immobilised ligand
Tested at: 0.1 µM
Measurement: remaining binding
CAMK1G (Homo sapiens, UniProt Q96NX5): 97%
RIPK1 (Homo sapiens, UniProt Q13546): 100%
PAK2 (Homo sapiens, UniProt Q13177): 99%
BMX (Homo sapiens, UniProt P51813): 100%
CAMK1 (Homo sapiens, UniProt Q14012): 92%
DSTYK (Homo sapiens, UniProt Q6XUX3): 67%
MAP3K5 (Homo sapiens, UniProt Q99683): 98%
GRK2 (Homo sapiens, UniProt P25098): 98%
eIF-2-alpha kinase GCN2, C-terminal kinase domain (EIF2AK4, Homo sapiens, UniProt Q9P2K8, S808G): 100%
PIK3CD (Homo sapiens, UniProt O00329): 51%
CILK1 (Homo sapiens, UniProt Q9UPZ9): 79%
CLK2 (Homo sapiens, UniProt P49760): 86%
KIT (Homo sapiens, UniProt P10721, D816V): 100%
ALK (Homo sapiens, UniProt Q9UM73, L1196M): 99%
CSNK1E (Homo sapiens, UniProt P49674): 64%
LIM domain kinase 2 (LIMK2, Homo sapiens, UniProt P53671): 79%
TSSK3 (Homo sapiens, UniProt Q96PN8): 100%
MAP3K2 (Homo sapiens, UniProt Q9Y2U5): 89%
MYLK3 (Homo sapiens, UniProt Q32MK0): 91%
Tyrosine-protein kinase ABL1, phosphorylated (ABL1, Homo sapiens, UniProt P00519, Y253F): 81%
TNIK (Homo sapiens, UniProt Q9UKE5): 100%
CAMKK1 (Homo sapiens, UniProt Q8N5S9): 99%
SBK3 (Homo sapiens, UniProt P0C264): 87%
BRSK2 (Homo sapiens, UniProt Q8IWQ3): 92%
DAPK2 (Homo sapiens, UniProt Q9UIK4): 89%

Block 4
SMILES: Cc1nc(Nc2ncc(C(=O)Nc3c(C)cccc3Cl)s2)cc(N2CCN(CCO)CC2)n1
Observed: enzyme activity
Mode: inhibitor
Tested at: 0.5 µM
Reference: control
Measurement: remaining activity
HIPK2 (Homo sapiens, UniProt Q9H2X6): 97.1%
EPHB1 (Homo sapiens, UniProt P54762): 4.8%
WNK3 (Homo sapiens, UniProt Q9BYP7): 88.1%
CAMK2B (Homo sapiens, UniProt Q13554): 97.3%
Cyclin-dependent kinase 6, with cyclin D3 (CDK6, Homo sapiens, UniProt Q00534): 103%
TSSK2 (Homo sapiens, UniProt Q96PF2): 93.9%
RPS6KA5 (Homo sapiens, UniProt O75582): 101%
AXL (Homo sapiens, UniProt P30530): 61.4%
HIPK4 (Homo sapiens, UniProt Q8NE63): 98.4%
Cyclin-dependent kinase 1, with cyclin B (CDK1, Homo sapiens, UniProt P06493): 93.9%
MAP4K4 (Homo sapiens, UniProt O95819): 49.2%
Cyclin-dependent kinase 4, with cyclin D3 (CDK4, Homo sapiens, UniProt P11802): 99.1%
STK17A (Homo sapiens, UniProt Q9UEE5): 107%
PHKG1 (Homo sapiens, UniProt Q16816): 94.3%
STK16 (Homo sapiens, UniProt O75716): 96.9%
BLK (Homo sapiens, UniProt P51451): 3.04%
SRMS (Homo sapiens, UniProt Q9H3Y6): 17%
MAPKAPK3 (Homo sapiens, UniProt Q16644): 101%
PDPK1 (Homo sapiens, UniProt O15530): 94.1%
EPHA4 (Homo sapiens, UniProt P54764): 1.63%
RPS6KA6 (Homo sapiens, UniProt Q9UK32): 101%
PRKACG (Homo sapiens, UniProt P22612): 114%

Repeated from above (block 4):
AXL (Homo sapiens, UniProt P30530): 61.4%
HIPK4 (Homo sapiens, UniProt Q8NE63): 98.4%
Cyclin-dependent kinase 1, with cyclin B (CDK1, Homo sapiens, UniProt P06493): 93.9%
